# Assay results of several laboratories.
# Every numbered part comes from another study and shows a few of its results, in no order. Changes are numbered by the printed parent chain.

# Series 1
# Target: ABI1, truncated, D143A, DHFR fusion (Arabidopsis thaliana)
# Method: DHFR PCA, deep sequencing
# Medium: yeast
# Setting: methotrexate growth selection, single substitutions
# Together with: (+)-ABA 0.39 µM
# Reference: wild-type fitted maximum
# Direction: higher = stronger binding
# Starting sequence: PYL1, truncated, DHFR fusion (Arabidopsis thaliana); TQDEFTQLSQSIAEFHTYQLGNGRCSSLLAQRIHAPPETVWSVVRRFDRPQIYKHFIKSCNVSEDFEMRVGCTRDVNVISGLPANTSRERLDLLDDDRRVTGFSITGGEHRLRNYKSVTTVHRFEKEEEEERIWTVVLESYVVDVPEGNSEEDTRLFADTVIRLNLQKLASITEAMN; partner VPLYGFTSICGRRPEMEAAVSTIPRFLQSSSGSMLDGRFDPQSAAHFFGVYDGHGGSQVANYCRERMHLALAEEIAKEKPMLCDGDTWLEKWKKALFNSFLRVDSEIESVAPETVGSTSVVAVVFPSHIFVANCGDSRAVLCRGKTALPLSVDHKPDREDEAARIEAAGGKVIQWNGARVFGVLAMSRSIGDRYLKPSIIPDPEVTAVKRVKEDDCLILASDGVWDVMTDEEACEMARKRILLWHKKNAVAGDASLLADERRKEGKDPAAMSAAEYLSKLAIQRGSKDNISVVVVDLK
Variant,relative binding score
F103I,-6.57%
V76K,-4.84%
N149Q,59.3%
A35C,14.1%
R98L,23.5%
L169C,-2.27%
Q7K,36.8%
V137T,-2.2%
A158P,-27.8%
V100E,-3.47%
T6C,41.8%
L93V,57.6%
F157A,7.55%
G108N,-10%
E64P,60.1%
R99L,66.9%
E130W,4.22%
A84D,23.5%
V78K,0.684%
E151S,34.1%
L164K,-3.32%
N177F,46.2%

# Series 2
# Target: RING finger protein unkempt homolog, zinc fingers 1-6, GST-SBP tag (UNK, Homo sapiens, UniProt Q9C0B0, residues 30-357)
# Sequence of UniProt Q9C0B0 (30-357, looked up): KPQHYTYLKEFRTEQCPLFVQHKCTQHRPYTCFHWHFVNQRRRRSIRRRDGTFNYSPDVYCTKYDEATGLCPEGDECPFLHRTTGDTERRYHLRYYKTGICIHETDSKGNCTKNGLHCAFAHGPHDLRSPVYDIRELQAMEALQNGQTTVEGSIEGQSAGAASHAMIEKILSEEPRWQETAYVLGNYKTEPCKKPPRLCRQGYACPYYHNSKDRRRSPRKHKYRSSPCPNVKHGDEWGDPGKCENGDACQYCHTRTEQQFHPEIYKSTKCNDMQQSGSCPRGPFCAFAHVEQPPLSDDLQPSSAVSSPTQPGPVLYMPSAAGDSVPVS
# Method: RNA Bind-n-Seq
# Molecule type: RNA
# Medium: in vitro
# Concentration: not given
# Setting: RNA with constant flanks, human and mouse sites, ends assumed
# Reference: input RNA pool
# Direction: higher = stronger binding
# Shared flanks, not repeated: GGGAGUUCUACAGUCCGACGAUC … CAACAGAGGAUUGAGCAUCA
Sequence,bound/input enrichment
CCGCCGUGCAUGGGCUUCUUUUUGCACCCUGCUCACCCACCCAGUCUUUUGUAAUACUGUUUUCUAAACUUAUUUCUGAGUAUAAUCUCAGCUUGAAAUUGUAUAAUGCUAGAAUCAUGA,0.322 ratio
AUAACAUAUUUGGGGGUGGGGUGGGGUGUUACUUUGUGUUCUUCCUCCUUAGCCUAUUUUCUUGUGCGUAUGGUCUGUGUGGGGCCCCUUUCACAGCUGACACCACGAAAGGUGAUAUAU,2.05 ratio
GAAAAGGUGGAACUAGUAACAGGAGAAGAAGAUGAAAAAGUUUUGUAUUCACAAAGGGUGAAAUUAUUUAGAUUUGAUGCUGAGAUAAGUCAGUGGAAAGAAAGGGGUUUGGGGAAUUUA,3.99 ratio
GCCAUUACAACUCUCCACAACCUUUUAUUACAUCAAGAAGGAGCUAAAAUGGCAGUGCGUUUAGCUGGUGGGCUGCAGAAAAUGGUUGCCUUGCUCAACAAAACAAAUGUUAAAUUCUUG,0.258 ratio
UCUUUUUACACAGUUAAGUUUUGUGUUAACCAUUUACUAAUUUGCUUCUCUGAUUUUUGUGGUUAGAAGGGCCAAUUUCUUUUAAUGACCACAAGCUAACAUAUUAGCAACAGGUUAAAG,0.249 ratio
UACCUAGAGAAUAUAUAUCCUGAUUCUCAAAUUCCACGUCACUAUUUCUCAUUGGGAGAGAUACGAAAUGUGGAAACGAAUCAGUGUCUAGAUAACAUGGCUAGAAAAGAGAAUGAAAAA,0.597 ratio
GAUACUGGUAAACUGACUGGCGGAUCAUUUACCAUGAAAUACCAUGAUAUGCCUGACGUUAUAGAUUUCCUAGUCUUGAGACAACAAUUUGAUGAUGCAAAAUACAGGCGAUGGAAUAUA,0.441 ratio
GACCUAGCAAAUAAAAGAGCAGUAGAUUUCCAGGAAGCACAGUCCUAUGCAGAUGACAAUAGUUUAUUAUUCAUGGAGACAUCCGCUAAAACAUCAAUGAAUGUAAAUGAAAUAUUCAUG,1.42 ratio

# Series 3
# Target: Interferon regulatory factor 3, full length, phosphomimetic (IRF3, Homo sapiens, UniProt Q14653, residues 1-427, S386D/S396D/S398D/S402D/T404D/S405D)
# Method: protein-binding microarray
# Molecule type: double-stranded DNA, one strand shown
# Medium: in vitro
# Concentration: 2540 nM top
# Setting: 60-bp whole probe
# Together with: salmon DNA 0.4 mg/ml
# Reference: random background probes
# Direction: higher = stronger binding
# Shared flanks, not repeated: GCCTAGCAC … GTCTTGATTCGCTTGACGCTGCTG
# Target sequence (chain): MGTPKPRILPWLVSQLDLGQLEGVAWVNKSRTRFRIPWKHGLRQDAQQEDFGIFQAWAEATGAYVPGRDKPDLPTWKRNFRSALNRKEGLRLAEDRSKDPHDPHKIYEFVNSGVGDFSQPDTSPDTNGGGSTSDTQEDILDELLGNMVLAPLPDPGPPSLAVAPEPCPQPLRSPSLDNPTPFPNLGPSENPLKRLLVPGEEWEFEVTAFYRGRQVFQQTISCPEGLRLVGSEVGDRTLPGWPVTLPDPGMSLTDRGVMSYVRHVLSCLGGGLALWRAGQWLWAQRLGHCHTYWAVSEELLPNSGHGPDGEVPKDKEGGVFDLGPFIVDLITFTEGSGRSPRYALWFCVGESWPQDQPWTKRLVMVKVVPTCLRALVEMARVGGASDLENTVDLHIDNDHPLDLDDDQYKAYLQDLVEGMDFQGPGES
Sequence,fitted relative affinity
TTAGAACTGGGGTATCGATCAGTGCTA,-0.659 z-score
GACGGTCTCGGACTGCGGACGTGCTAG,-0.0842 z-score
GACGGACTGCATTTCCTGACGTGCTAG,-0.0377 z-score
GACGGTTTCGACTTTCGGGGCGTGCTA,3.9 z-score
GACGGACTGCTACTCCTGACGTGCTAG,-0.576 z-score
GACGGTTTCGCGACTGGGGACGTGCTA,1.96 z-score
TTAGTACTGGGGTTTCGATTAGTGCTA,1.29 z-score
GACGATTTCGGGTTTCGAGAAGTGCTA,3.06 z-score
TTAGGTTTCGCGACTGGGTTAGTGCTA,1.3 z-score
GACGTTATCAGTCTCGAGACGTGCTAG,1.64 z-score
TTTTTTTTCTAACTAAAAATGTGCTAG,2.62 z-score
TTAGGTTTCGGGACTGGGTCAGTGCTA,4.26 z-score
GACGATCTCATTTTCGAGACGTGCTAG,1.91 z-score
TTAAATTTCAGTCTCGATTAGTGCTAG,2.57 z-score
ATGTTTTGAGTTTTCCTTCAGTGCTAG,1.76 z-score
GACGGACTGGTTCTCGGGACGTGCTAG,-0.167 z-score
GAAGAACTGAGACTGGAGACGTGCTAG,-0.49 z-score
ATAGGTCTCGGACTGGGTTAGTGCTAG,-0.21 z-score
TTAGAACTGGGGACTGGATCAGTGCTA,-0.799 z-score

# Series 4
# Target: Protein C-ets-1 (ETS1, Homo sapiens, UniProt P14921, residues 1-441, Y397A, full length assumed)
# Method: protein-binding microarray
# Molecule type: double-stranded DNA, one strand shown
# Medium: in vitro
# Concentration: not given
# Setting: k-mer, scored over probes, only values ≥0.25
# Direction: higher = stronger binding
# Construct (chain): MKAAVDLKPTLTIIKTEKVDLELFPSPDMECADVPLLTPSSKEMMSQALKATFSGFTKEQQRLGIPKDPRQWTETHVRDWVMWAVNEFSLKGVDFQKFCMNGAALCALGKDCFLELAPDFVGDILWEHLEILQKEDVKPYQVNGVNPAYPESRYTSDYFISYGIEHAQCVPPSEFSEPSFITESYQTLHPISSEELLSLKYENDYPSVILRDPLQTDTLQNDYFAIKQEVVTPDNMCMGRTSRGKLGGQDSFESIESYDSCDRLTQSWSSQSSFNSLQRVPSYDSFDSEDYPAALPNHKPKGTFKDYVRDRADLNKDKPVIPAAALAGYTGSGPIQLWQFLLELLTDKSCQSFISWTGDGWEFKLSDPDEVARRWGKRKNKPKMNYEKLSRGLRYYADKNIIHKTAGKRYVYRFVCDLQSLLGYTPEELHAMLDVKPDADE
Sequence,E-score
ATATCCGA,0.299
CAAACAAC,0.255
CCGGAAAA,0.297
CCCCTCCA,0.26
ACAAACAC,0.346
ACATATCC,0.265
ATTGTCTA,0.263
CGTCAAAA,0.38
CAACAATC,0.335
GACATACA,0.317
AAGTAACA,0.261
ACGGTAAA,0.261
CGGTGACA,0.259
CCCGACAA,0.323
ACATCCGC,0.42
AAATTGCT,0.25
ACGCACGC,0.316
CCCACCCC,0.326
GCGCAAAC,0.295
CGGAAGTC,0.474
ACAAAAAA,0.288

# Series 5
# Target: Histone acetyltransferase KAT6A, both winged helices, GST fusion (KAT6A, Homo sapiens, UniProt Q92794, residues 1-181)
# Method: protein binding microarray
# Molecule type: double-stranded DNA, one strand shown
# Medium: in vitro
# Concentration: not given
# Setting: 8-mer, flanks averaged, mean of 2 arrays, mostly near background
# Reference: not given
# Direction: higher = stronger binding
# Residues (chain): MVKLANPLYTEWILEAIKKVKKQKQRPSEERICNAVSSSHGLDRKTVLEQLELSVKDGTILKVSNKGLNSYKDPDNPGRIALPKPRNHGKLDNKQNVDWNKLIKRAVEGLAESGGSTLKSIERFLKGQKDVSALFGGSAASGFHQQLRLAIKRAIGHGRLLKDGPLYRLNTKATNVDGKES
Sequence,E-score
GTCCTCAC,-0.0905
AAGAACAA,-0.00321
AGACTGGA,-0.169
CAATGCGC,0.329
AGAGTAAC,-0.0267
AGACCTCC,-0.0887
GAGGCGGC,0.273
TACTGTGA,-0.149
AAGGCCCG,0.192
CATTAAGA,-0.163
GCTAGGCA,-0.0337
AGCTGACA,-0.0638
TATAAAGA,-0.0106
CGACTCAC,0.00112
ACTCTGAC,-0.0461
AGGGCAAT,-0.0206
AGGCTGGA,-0.19
ACAGACGT,-0.00194
CGACCGAG,0.139
GATGCTCC,0.0618
AGACAGTA,-0.351
ACGTACAG,-0.134
TCGCCCAA,-0.139
GACGAATC,-0.0259
TCTACAGA,0.00699

# Repeated from above (series 3):
Sequence,fitted relative affinity
GACGATCTCATTTTCGAGACGTGCTAG,1.91 z-score
GACGATTTCGGGTTTCGAGAAGTGCTA,3.06 z-score
TTTTTTTTCTAACTAAAAATGTGCTAG,2.62 z-score
ATGTTTTGAGTTTTCCTTCAGTGCTAG,1.76 z-score
GACGGTTTCGCGACTGGGGACGTGCTA,1.96 z-score
TTAGAACTGGGGACTGGATCAGTGCTA,-0.799 z-score
